Assay results collected from several papers.
Parts stem from different laboratories: compare values within a part only. Substitutions count along the parent as printed.

Series 1 — target: CCNA1, cyclin fold, Cln2 fusion (human); method: yeast growth competition, sequencing; sample: yeast; setting: weak parent motif; relative to: not given; direction: higher = stronger binding; quantity: normalised enrichment score
Parent: BORA docking peptide (human); SSLRRKLFLDGNG; partner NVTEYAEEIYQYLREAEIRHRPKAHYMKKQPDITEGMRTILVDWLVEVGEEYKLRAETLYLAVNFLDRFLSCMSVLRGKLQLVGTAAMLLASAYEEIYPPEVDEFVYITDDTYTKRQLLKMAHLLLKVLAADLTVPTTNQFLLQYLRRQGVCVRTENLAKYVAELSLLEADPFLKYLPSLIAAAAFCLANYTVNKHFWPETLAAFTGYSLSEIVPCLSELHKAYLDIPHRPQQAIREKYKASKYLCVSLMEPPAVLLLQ
L7A: 0.27
L3A: 0.185
R5A: 0.301
R5K: 0.165
S2A: 0.299
F8L: 0.318
G11A: 0.163
G13A: 0.208

Series 2 — method: protein-binding microarray; molecule type: double-stranded DNA, one strand shown; sample: in vitro; concentration: 250 nM; setting: 60-bp whole probe; together with: salmon DNA 0.4 mg/ml; relative to: random background probes; direction: higher = stronger binding; quantity: log fluorescence; all sequences stand within: GCCTAGCAC … GTCTTGATTCGCTTGACGCTGCTG
Target: Interferon regulatory factor 7, full length, phosphomimetic (IRF7, Homo sapiens, UniProt Q92985, residues 1-503, S101K/S471D/S472D/S475D/S476D/S477D/S483D/S484D/S487D)
Sequence of UniProt Q92985 (whole entry, unmodified, looked up): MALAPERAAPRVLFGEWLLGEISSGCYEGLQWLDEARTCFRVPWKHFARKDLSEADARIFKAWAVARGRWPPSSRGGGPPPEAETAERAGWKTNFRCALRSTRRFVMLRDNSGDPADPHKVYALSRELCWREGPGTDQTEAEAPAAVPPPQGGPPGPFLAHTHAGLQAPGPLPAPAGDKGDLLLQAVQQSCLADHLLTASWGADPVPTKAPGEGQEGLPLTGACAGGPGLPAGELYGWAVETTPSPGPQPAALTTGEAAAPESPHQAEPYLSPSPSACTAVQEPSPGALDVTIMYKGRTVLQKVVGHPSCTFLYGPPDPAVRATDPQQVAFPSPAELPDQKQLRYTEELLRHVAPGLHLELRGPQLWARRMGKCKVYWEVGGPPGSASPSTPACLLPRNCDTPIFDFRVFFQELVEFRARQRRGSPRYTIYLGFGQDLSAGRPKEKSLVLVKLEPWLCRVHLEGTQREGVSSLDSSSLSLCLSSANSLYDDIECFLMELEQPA
TTAGGACTGGGGTTTCGGTAAGTGCTA: 1.36 z-score
TTAGGTCTCATTTTCCTTTAGTGCTAG: 2.66 z-score
TTAGAACTGAGTATCGATTCGTGCTAG: 2.41 z-score
GACGATTCCAGTTTCGAGAGGTGCTAG: 2.77 z-score
TCACACTTCCTTCTGCCACTGTGCTAG: 0.314 z-score
GACGAACTGAGAATCGAGACGTGCTAG: 0.187 z-score
TCAATTCTCTACTTGTGACTGTGCTAG: 1.27 z-score
TTTCCTATGTCATTTACATTGTGCTAG: 2.99 z-score
TCAGGTTTCCTTTCCCTTTAGTGCTAG: 4.8 z-score
GACGATTTAGGGACTGGAGACGTGCTA: -0.489 z-score

Series 3 — method: protein binding microarray; molecule type: double-stranded DNA, one strand shown; sample: in vitro; concentration: not given; relative to: not given; direction: higher = stronger binding; quantity: E-score
Target: Histone acetyltransferase KAT6A, winged helix 1, GST fusion (KAT6A, Homo sapiens, UniProt Q92794, residues 1-85)
Setting: 8-mer, flanks averaged, mean of 2 arrays, mostly near background
Target sequence (chain): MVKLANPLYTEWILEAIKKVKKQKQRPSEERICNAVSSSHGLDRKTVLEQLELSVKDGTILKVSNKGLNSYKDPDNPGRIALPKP
AAGCGAAC: 0.0871
CATTATTA: 0.0615
CCTCTCAG: -0.266
ATCGTCCG: 0.098
GCCAGAAC: -0.113
CACCCCAC: -0.188
AACCAGAT: -0.172
AGCGCATC: 0.281
AGGCTTTC: -0.16

Single results of other studies
PhoQ, residues 284 288 289 292 302 303 SVTLVV  fold induction (PhoP, residues 12 14 15 18 19 LWHVM (Escherichia coli, UniProt P23836); Sort-seq, measured: YFP reporter; E. coli; PhoQ-PhoP variant library, together with: 10 µM Mg2+; relative to: high Mg2+ state, higher = stronger signaling): 10.7

For quick reference, copied from above (series 3):
AGGCTTTC: -0.16
CATTATTA: 0.0615
